Published values collected from several papers.
Parts stem from different laboratories: compare values within a part only.
UniProt Q9Y6R4, sequence (whole entry, looked up): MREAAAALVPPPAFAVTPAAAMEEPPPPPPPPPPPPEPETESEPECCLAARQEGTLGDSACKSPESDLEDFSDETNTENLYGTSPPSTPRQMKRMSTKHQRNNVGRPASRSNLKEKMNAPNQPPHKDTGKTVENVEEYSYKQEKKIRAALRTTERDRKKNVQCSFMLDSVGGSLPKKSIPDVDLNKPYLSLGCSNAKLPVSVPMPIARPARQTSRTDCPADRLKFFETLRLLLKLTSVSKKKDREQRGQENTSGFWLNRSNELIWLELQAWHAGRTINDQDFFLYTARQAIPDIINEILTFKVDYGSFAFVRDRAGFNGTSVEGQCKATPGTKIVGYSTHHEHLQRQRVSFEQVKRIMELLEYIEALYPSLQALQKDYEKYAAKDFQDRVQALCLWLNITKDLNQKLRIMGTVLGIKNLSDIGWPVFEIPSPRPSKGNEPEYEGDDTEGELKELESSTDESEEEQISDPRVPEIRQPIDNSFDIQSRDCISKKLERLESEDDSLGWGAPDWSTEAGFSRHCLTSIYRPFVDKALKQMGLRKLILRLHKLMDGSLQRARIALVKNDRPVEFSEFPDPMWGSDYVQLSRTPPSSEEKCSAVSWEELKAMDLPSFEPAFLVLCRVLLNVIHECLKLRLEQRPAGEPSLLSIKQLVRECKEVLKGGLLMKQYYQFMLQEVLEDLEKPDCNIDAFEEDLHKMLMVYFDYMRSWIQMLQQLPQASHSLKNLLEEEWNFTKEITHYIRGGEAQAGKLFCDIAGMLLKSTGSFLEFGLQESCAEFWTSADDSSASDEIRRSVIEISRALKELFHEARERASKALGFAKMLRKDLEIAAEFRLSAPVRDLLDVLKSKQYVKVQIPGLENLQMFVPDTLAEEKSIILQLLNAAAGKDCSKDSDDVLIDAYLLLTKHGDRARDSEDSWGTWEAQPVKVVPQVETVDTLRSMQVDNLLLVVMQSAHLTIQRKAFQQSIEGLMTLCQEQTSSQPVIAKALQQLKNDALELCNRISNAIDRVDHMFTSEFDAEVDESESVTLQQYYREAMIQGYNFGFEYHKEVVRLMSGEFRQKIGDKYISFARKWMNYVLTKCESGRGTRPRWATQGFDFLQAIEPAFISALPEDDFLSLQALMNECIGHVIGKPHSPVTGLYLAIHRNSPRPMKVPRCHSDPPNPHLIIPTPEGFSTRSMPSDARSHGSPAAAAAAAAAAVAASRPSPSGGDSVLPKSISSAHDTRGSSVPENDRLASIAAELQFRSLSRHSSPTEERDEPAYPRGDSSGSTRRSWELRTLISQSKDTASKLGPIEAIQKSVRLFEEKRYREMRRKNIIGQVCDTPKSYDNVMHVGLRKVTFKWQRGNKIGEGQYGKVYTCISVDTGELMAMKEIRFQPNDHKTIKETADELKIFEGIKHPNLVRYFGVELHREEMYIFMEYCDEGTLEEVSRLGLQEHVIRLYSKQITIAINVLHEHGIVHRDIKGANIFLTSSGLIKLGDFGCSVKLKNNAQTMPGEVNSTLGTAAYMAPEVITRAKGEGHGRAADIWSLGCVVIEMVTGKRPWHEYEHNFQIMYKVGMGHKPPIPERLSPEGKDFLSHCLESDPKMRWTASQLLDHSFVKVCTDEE
UniProt Q9HBH9, sequence (whole entry, looked up): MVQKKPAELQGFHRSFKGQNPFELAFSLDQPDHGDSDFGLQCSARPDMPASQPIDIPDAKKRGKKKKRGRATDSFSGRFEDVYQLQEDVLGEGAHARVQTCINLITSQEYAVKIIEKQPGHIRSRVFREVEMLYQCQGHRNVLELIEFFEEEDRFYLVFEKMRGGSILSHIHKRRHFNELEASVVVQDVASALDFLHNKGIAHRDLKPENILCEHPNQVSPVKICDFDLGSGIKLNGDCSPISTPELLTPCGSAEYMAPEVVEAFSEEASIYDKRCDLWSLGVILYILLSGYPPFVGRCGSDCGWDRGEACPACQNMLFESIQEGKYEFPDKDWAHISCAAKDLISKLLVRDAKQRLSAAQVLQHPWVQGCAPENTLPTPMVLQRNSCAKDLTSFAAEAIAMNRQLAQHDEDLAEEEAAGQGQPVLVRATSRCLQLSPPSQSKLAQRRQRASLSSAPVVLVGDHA
UniProt Q9NRP7, sequence (whole entry, looked up): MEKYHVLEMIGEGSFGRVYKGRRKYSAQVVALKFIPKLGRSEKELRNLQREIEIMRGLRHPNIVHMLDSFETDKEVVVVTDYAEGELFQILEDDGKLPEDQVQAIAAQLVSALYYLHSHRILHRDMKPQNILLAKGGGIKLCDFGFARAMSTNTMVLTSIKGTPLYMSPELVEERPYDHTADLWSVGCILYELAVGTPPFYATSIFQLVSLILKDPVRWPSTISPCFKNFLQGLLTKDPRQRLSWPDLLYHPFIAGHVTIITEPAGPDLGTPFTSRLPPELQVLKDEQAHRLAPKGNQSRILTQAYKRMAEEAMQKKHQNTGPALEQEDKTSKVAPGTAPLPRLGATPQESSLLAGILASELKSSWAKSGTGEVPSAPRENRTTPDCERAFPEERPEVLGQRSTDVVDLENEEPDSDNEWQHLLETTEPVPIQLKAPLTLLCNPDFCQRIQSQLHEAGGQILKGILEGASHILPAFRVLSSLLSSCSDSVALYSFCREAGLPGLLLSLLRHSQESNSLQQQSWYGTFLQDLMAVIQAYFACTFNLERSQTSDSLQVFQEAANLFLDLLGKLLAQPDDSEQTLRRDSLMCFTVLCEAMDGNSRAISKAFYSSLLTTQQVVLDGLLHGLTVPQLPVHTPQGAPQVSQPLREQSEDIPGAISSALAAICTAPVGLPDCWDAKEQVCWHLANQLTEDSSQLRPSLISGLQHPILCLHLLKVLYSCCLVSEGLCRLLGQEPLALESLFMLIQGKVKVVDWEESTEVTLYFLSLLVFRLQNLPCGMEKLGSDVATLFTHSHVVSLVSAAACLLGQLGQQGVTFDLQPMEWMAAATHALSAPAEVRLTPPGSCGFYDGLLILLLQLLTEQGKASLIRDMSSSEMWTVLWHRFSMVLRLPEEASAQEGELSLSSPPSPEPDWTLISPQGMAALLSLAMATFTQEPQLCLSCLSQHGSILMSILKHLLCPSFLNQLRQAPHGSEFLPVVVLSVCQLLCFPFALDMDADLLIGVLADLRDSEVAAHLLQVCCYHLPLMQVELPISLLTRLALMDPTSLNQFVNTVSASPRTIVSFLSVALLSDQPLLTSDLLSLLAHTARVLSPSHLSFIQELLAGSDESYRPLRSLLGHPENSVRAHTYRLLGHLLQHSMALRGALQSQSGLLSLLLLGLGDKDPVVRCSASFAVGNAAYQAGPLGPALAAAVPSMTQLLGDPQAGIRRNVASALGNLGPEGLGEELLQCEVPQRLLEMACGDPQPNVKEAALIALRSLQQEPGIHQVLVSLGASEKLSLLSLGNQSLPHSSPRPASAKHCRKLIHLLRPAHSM
UniProt Q9UQB9, sequence (whole entry, looked up): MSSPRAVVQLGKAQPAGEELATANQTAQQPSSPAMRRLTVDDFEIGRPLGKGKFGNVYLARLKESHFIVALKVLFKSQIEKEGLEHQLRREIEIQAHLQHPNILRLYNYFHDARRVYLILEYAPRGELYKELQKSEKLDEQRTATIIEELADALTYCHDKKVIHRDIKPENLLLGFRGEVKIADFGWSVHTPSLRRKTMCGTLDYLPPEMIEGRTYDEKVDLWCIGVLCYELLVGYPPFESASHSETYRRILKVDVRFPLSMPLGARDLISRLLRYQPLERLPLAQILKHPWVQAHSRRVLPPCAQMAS
UniProt Q9H2K8, sequence (whole entry, looked up): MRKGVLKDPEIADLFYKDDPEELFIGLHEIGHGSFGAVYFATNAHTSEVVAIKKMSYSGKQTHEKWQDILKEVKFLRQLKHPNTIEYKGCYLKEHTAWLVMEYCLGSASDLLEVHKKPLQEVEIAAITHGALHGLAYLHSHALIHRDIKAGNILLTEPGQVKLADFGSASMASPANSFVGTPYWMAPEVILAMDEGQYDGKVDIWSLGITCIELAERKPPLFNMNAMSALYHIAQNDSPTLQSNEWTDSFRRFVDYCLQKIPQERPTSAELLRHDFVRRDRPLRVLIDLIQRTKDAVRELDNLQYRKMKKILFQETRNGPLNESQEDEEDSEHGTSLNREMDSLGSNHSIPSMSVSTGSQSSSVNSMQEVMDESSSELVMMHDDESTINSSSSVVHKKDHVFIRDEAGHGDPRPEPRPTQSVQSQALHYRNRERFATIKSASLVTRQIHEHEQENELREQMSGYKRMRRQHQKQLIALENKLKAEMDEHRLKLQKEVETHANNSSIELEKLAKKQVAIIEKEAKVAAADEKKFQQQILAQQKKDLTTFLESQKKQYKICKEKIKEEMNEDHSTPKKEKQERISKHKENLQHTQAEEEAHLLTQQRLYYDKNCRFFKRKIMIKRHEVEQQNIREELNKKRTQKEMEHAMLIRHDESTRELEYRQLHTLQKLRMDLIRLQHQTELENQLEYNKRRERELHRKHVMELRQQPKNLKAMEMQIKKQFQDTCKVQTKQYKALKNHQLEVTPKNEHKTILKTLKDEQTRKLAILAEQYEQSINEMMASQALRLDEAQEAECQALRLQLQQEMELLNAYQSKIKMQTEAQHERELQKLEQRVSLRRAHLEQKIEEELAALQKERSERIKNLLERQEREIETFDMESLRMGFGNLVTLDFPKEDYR

Block 1
Target: Beta-1 adrenergic receptor (ADRB1, Homo sapiens, UniProt P08588)
UniProt P08588, sequence (whole entry, looked up): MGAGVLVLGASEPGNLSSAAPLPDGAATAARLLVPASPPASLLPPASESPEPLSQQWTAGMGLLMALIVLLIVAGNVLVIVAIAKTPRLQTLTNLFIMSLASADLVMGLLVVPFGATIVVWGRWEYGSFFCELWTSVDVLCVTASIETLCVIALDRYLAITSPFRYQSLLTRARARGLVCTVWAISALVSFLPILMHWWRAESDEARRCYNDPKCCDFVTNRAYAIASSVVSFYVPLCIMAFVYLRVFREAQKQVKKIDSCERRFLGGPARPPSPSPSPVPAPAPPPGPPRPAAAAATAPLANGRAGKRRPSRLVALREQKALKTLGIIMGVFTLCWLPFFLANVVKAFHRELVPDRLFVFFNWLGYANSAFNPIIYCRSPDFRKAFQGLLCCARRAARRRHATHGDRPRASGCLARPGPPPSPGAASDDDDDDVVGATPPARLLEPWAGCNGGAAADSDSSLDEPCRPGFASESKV
Action: agonist
For CCN(C)c1ccc(C(=O)N2CCC(c3c[nH]c4ccc(C(N)=O)cc34)CC2)cc1, the EC50 was ≥ 100 µM.
For COc1ccccc1N1CCN([C@H]2[C@@H]3OC[C@@H](O3)[C@@H](NCc3ccc(-c4ccccc4)cc3)[C@@H]2O)CC1, the EC50 was ≥ 100 µM.
With Cc1ccc(C(=O)Nc2ccc(Oc3cc4cnn(C)c4cc3-c3cn[nH]c3)c(F)c2)c(=O)n1-c1ccc(F)cc1 the EC50 was ≥ 100 µM.
N#C/C(=C\c1ccc(O)c(O)c1)C(=O)NCCc1ccccc1 has an EC50 of ≥ 100 µM.
The EC50 of Cc1noc2c(-c3cccc(CO)c3)cc(-c3cccc(C(F)(F)F)c3)nc12 is reported as ≥ 100 µM.
With OC(COc1ccc(CN2CC(N3CCOCC3)C2)cc1)CN1CCCCC1 (stereo not drawn) the EC50 was ≥ 100 µM.
For CCN(Cc1cccc([S+](=O)([O-])O)c1)c1ccc(C(=C2C=CC(=[N+](CC)Cc3cccc([S+](=O)([O-])O)c3)C=C2)c2ccc(O)cc2[S+](=O)([O-])O)cc1, the EC50 was 35.5 µM.
For O=C(O)Cn1cc(-c2cccc(-c3nn4c(=O)cc(N5CCNCC5)nc4s3)c2)cn1, the EC50 was 7.94 µM.
For COc1ccccc1N1CCC(N2C(=O)C3CCCN3C2=O)CC1 (stereo not drawn), the EC50 was ≥ 100 µM.
With CN(C)c1ccc(C(=C2C=CC(=[N+](C)C)C=C2)c2c(O)c(S(=O)(=O)[O-])cc3cc(S(=O)(=O)O)ccc23)cc1 the EC50 was 35.5 µM.

Block 2
Target: Mitogen-activated protein kinase kinase kinase 5 (MAP3K5, Homo sapiens, UniProt Q99683)
Effect on: enzyme activity
Action: inhibitor
Tested at: 0.5 µM
Baseline: control
Residues (Q99683 1-1374): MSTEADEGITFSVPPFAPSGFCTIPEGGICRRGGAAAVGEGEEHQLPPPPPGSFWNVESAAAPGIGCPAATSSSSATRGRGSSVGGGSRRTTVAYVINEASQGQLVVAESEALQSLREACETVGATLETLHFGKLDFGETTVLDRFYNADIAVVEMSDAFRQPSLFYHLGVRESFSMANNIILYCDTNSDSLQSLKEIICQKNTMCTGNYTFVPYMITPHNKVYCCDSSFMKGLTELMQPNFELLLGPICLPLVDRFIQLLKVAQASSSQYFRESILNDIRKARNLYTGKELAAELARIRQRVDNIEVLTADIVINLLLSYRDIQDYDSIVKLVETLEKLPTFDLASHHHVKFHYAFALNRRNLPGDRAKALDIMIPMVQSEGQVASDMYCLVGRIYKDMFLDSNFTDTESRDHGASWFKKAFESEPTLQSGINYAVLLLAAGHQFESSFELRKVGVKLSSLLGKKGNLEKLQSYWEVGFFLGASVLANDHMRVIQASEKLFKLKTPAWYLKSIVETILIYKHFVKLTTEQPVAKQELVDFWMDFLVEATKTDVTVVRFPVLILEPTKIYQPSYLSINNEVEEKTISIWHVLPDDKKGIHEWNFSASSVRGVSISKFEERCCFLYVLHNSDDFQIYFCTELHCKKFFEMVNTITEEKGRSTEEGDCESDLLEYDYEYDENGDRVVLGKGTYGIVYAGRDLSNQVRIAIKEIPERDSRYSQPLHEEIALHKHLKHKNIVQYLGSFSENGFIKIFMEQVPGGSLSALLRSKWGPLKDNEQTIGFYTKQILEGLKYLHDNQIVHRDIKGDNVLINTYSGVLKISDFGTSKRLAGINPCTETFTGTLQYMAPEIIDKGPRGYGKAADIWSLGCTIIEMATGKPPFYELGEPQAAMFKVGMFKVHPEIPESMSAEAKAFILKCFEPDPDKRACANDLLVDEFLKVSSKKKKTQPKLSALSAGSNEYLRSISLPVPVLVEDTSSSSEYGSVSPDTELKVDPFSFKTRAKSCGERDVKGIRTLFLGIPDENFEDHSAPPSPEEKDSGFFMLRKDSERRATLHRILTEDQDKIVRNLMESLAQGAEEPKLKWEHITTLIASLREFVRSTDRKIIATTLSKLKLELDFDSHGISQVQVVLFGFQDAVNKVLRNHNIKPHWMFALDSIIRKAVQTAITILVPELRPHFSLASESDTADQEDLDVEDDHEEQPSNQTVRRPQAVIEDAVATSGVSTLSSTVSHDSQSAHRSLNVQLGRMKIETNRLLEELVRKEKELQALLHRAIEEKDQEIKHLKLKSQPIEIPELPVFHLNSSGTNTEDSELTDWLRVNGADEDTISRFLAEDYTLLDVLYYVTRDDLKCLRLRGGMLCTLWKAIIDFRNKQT
For C#Cc1cccc(Nc2ncnc3cc(OCCOC)c(OCCOC)cc23)c1, the remaining activity was 102%.
With COc1cc2ncnc(Nc3ccc(F)c(Cl)c3)c2cc1OCCCN1CCOCC1 the remaining activity was 103%.
With Nc1ncnc2n[nH]c(Nc3ccc(F)cc3)c12 the remaining activity was 111%.
The remaining activity of O=C1NC(=O)C(c2cn(CCCn3ccnc3)c3ccccc23)=C1Nc1ccccc1 is reported as 105%.
With CN(C)c1ccc(C=C2C(=O)Nc3ccccc32)cc1 the remaining activity was 99.4%.
O=S(=O)(c1cccc2cnccc12)N1CCCNCC1 has a remaining activity of 88.7%.
O=C(CCCc1ccc(-c2ccccc2F)cc1)Nc1ccc(O)cc1 gave a remaining activity of 94.3%.
The remaining activity of COc1ccc(CNC(=O)Nc2ncc([N+](=O)[O-])s2)cc1 is reported as 87.8%.
Oc1ccc(-c2nc(-c3ccncc3)c(-c3ccc(F)cc3)[nH]2)cc1 has a remaining activity of 105%.
For OCC(O)CCON=C1C(c2c(O)[nH]c3ccccc23)=Nc2ccccc21 (stereo not drawn), the remaining activity was 91.2%.
For Cc1nc(-c2ccccc2)c(-c2ccncc2)o1, the remaining activity was 102%.
Cn1sc(=O)n(Cc2ccccc2)c1=O has a remaining activity of 91.5%.
With COc1ccc(OC)c2c(=S)c3ccccc3[nH]c12 the remaining activity was 115%.

Block 3
SMILES: CN(C)CC#Cc1ccc(OCCCc2sc(N3CCc4cccc(C(=O)Nc5nc6ccccc6s5)c4C3)nc2C(=O)O)c(F)c1
Effect on: cell-free assay
Method: competition with immobilised ligand
Tested at: 1 µM
For Serine/threonine-protein kinase 36 (STK36, Homo sapiens, UniProt Q9NRP7): remaining binding read 99%.
Serine/threonine-protein kinase TAO3 (TAOK3, Homo sapiens, UniProt Q9H2K8) — remaining binding: 100%.
Mitogen-activated protein kinase kinase kinase 4 (MAP3K4, Homo sapiens, UniProt Q9Y6R4) — remaining binding: 100%.
It gave 94% for remaining binding (Epidermal growth factor receptor (EGFR, Homo sapiens, UniProt P00533, del747-750/T751S)).
For Receptor-type tyrosine-protein kinase FLT3 (FLT3, Homo sapiens, UniProt P36888, D835H): remaining binding read 93%.
It gave 75% for remaining binding (MAP kinase-interacting serine/threonine-protein kinase 2 (MKNK2, Homo sapiens, UniProt Q9HBH9)).
For Aurora kinase C (AURKC, Homo sapiens, UniProt Q9UQB9): remaining binding read 9%.
For Serine/threonine-protein kinase 10 (STK10, Homo sapiens, UniProt O94804): remaining binding read 100%.
The remaining binding was 99% (Mitogen-activated protein kinase kinase kinase 15 (MAP3K15, Homo sapiens, UniProt Q6ZN16)).

Mixed results
Cc1cc2c(C(N)=O)c(N)n(-c3c(C)ccc(O)c3C)c2nc1C gave a binding remaining of 0.1% (ABL1 phosphorylated human; KINOMEscan; 1000 nM; baseline: control).

A few entries again (block 1):
With Cc1ccc(C(=O)Nc2ccc(Oc3cc4cnn(C)c4cc3-c3cn[nH]c3)c(F)c2)c(=O)n1-c1ccc(F)cc1 the EC50 was ≥ 100 µM.
With OC(COc1ccc(CN2CC(N3CCOCC3)C2)cc1)CN1CCCCC1 (stereo not drawn) the EC50 was ≥ 100 µM.
With CN(C)c1ccc(C(=C2C=CC(=[N+](C)C)C=C2)c2c(O)c(S(=O)(=O)[O-])cc3cc(S(=O)(=O)O)ccc23)cc1 the EC50 was 35.5 µM.
